Values quoted from earlier work that unrelated publications cite.
Each line is one published result; not all experiments were run side by side.
B1: CCL1; sequence looked up; chain KSMQVPFSRCCFSFAEQEIPLRAILCYRNTSSICSNEGLIFKLKRGKEACALDTVGWVQRHRKMLRHCPSKRK

Substance | tested on | test | system | conditions | scale | endpoint | result
indirubin-3'-monoxime | – | angiogenesis | zebrafish embryos | – | – | IC50 | 310 nM
amivantamab | – | clinical trial | human, NSCLC patients | dose not given | – | objective response rate | 40%
KKRKGHKMATHKRKKRLRKNRHKKK | Pseudomonas aeruginosa | – | peptide, ATCC 15692 | – | – | MIC | 6 µM
hydroxysafflor yellow A | – | anti-inflammatory effect | lung injury, acute, LPS-induced mouse | intravenous | – | effective dose | 6 mg/kg
RQIKIWFQNRKWKWKK | Staphylococcus aureus | – | peptide, methicillin-resistant | – | – | MIC | 250 µg/mL
ifinatamab deruxtecan | – | – | patients with advanced solid tumours | dose not given, sqNSCLC cohort | – | objective response rate | 40%
retatrutide | – | – | human, obese adults | 12 mg, 48 weeks, trial | – | body weight reduction | 24.2%
B1 (CCL1) | CCR8 S262A mutant | IP accumulation, agonist | – | – | – | EC50 | 5.2 nM
mogamulizumab | – | – | human relapsed/refractory PTCL patients | dose not given | – | overall response rate | 22 to 34%
pegcetacoplan | – | – | human | 1440 mg single dose | reference: baseline | AP50 alternative pathway haemolytic activity | decreased
bevacizumab | – | – | patients with recurrent glioblastoma | dose not given, CheckMate-143 trial | – | median progression-free survival | 3.5 months
brentuximab vedotin | – | – | relapsed/refractory ALCL patients, human | dose not given, PTCL | – | overall response rate | 86%
